Measured values of several laboratories.
A part holds a random share of what one study measured. Substitutions count along the parent as printed.
Sequence of UniProt O43683 (whole entry, looked up): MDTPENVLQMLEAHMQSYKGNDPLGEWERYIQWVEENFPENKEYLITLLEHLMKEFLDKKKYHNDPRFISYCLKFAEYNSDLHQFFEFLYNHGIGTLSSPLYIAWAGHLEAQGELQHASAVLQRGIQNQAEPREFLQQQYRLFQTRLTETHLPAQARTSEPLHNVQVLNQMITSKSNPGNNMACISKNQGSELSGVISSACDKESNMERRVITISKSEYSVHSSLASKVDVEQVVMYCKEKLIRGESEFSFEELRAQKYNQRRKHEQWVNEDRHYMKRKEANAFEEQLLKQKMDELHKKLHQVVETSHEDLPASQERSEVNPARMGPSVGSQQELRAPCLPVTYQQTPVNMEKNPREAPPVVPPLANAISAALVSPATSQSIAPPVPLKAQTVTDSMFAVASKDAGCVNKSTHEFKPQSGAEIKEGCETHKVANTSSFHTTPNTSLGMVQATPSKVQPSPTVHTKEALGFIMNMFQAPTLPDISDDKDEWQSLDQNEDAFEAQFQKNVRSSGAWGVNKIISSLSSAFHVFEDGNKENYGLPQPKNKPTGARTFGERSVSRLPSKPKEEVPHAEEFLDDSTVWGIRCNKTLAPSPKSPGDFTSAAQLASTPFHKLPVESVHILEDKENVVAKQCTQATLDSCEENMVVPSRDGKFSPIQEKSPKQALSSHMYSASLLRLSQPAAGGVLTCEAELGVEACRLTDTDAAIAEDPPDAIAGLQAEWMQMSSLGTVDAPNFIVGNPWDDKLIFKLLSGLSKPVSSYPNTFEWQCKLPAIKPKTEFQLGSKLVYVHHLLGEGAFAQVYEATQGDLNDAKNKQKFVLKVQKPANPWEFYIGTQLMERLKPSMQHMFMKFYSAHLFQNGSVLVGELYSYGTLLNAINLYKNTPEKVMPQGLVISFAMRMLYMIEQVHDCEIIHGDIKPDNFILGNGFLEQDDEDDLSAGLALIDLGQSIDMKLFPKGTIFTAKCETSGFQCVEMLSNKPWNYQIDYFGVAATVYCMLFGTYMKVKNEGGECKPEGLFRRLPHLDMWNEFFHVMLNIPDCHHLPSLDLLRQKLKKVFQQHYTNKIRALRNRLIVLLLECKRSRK
Sequence of UniProt P37023 (whole entry, looked up): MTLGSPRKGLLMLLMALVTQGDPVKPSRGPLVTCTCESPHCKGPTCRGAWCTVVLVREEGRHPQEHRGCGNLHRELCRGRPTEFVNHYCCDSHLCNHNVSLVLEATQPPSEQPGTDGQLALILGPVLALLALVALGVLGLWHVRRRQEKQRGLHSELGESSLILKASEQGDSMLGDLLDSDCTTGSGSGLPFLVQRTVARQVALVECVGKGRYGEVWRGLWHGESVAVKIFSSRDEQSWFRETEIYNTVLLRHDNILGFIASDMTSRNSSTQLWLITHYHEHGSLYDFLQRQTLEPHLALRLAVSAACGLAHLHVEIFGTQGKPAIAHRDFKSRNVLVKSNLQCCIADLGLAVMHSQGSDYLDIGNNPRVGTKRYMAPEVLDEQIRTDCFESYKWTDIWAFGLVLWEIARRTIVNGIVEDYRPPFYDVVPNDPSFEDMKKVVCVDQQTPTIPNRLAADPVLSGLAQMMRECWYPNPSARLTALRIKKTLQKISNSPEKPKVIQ
Sequence of UniProt P49137 (whole entry, looked up): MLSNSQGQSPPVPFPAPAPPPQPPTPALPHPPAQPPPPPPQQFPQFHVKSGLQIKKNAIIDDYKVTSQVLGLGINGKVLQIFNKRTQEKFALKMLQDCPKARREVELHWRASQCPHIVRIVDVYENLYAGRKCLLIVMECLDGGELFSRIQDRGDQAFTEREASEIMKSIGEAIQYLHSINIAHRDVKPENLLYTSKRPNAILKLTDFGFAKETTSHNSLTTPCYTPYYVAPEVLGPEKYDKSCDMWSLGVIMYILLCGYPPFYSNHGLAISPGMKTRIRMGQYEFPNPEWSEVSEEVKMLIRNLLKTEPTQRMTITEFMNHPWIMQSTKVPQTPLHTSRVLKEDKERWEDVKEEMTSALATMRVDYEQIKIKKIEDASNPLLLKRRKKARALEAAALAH
Sequence of UniProt O95382 (whole entry, looked up): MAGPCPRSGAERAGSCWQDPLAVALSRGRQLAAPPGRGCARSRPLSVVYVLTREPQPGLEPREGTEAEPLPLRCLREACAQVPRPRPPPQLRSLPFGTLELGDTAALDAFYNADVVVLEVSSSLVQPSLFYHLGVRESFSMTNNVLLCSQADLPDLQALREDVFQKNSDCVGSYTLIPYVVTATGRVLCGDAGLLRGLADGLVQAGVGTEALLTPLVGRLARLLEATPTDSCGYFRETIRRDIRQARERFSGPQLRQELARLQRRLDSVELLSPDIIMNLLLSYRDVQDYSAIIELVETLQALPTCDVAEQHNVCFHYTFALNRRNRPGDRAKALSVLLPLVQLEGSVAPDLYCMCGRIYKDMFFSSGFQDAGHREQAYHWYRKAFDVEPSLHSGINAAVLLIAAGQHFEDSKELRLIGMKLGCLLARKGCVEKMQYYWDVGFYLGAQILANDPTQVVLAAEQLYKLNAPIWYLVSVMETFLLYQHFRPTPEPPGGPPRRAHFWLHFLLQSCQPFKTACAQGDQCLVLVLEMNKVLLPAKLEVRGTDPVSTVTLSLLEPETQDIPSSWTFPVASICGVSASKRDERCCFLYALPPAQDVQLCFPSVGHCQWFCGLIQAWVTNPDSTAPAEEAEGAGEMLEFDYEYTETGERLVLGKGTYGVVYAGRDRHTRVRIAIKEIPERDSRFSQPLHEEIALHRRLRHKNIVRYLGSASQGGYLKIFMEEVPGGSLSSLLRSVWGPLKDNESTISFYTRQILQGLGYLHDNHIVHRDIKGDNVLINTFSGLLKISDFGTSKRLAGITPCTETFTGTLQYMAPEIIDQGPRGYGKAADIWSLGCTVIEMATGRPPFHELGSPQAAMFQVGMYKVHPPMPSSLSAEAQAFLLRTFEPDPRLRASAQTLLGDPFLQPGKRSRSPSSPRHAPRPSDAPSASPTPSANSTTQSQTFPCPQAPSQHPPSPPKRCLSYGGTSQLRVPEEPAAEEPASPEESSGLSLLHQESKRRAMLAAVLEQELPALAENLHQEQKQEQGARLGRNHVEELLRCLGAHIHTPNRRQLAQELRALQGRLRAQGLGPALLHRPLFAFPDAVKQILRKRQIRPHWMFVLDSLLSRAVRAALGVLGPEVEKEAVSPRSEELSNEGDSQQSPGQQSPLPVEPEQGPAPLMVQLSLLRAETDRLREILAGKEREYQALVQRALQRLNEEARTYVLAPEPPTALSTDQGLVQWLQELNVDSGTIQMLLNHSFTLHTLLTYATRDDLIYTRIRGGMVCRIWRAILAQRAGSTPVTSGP
Sequence of UniProt P16591 (whole entry, looked up): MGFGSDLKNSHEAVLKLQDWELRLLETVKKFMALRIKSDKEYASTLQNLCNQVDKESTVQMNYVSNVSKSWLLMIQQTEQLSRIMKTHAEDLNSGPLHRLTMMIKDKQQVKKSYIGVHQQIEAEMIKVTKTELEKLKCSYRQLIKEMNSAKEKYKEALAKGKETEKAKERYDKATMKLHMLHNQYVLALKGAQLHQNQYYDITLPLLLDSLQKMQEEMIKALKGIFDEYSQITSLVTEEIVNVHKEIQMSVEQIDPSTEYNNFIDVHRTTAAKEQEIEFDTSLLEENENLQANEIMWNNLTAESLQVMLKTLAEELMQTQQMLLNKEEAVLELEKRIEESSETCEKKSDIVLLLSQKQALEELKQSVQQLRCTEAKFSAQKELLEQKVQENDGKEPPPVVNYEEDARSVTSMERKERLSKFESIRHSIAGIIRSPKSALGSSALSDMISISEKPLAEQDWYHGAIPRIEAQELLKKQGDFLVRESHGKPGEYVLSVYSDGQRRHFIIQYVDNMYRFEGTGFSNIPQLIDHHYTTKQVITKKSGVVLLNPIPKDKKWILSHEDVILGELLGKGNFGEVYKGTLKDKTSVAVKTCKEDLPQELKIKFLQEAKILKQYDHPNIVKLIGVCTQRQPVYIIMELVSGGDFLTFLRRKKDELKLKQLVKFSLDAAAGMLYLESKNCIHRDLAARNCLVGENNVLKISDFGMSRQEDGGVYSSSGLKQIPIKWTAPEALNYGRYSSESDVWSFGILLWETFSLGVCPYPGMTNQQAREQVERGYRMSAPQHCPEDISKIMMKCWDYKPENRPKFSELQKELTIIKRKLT

Set 1
Target: TAR DNA-binding protein 43, full length, His tag (TARDBP, Homo sapiens, UniProt Q13148, residues 1-414)
Method: RNA Bind-n-Seq
Form: RNA
Sample: in vitro
Tested at: 20 nM
Setting: 6-mer, flanks averaged, single round
With: 150 mM KCl
Baseline: input library
Direction: higher = stronger binding
Oligonucleotide	6-mer enrichment (R)
ACGGCC	0.841
UCUGUA	0.647
ACAUGG	1.02
CCACAC	0.645
GUACCG	0.907
AUUCUG	0.602
AGUCAU	0.588
CAGGGU	2

Set 2
Target: Dual specificity tyrosine-phosphorylation-regulated kinase 4 (DYRK4, Homo sapiens, UniProt Q9NR20)
Sequence of UniProt Q9NR20 (whole entry, looked up): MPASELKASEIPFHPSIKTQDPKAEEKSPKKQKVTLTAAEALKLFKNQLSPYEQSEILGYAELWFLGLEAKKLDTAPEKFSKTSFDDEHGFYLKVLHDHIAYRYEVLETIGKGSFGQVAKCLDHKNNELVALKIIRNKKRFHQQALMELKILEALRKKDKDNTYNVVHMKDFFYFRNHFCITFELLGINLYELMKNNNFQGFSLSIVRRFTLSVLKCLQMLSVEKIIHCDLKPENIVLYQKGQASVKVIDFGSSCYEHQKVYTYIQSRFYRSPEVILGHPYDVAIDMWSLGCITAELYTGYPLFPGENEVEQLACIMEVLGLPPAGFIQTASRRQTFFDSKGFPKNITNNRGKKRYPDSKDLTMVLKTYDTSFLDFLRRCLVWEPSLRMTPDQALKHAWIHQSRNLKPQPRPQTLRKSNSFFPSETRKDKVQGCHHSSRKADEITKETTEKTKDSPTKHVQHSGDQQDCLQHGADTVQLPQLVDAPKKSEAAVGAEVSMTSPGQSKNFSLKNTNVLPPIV
Read-out: enzyme activity
Action: inhibitor
Tested at: 0.5 µM
Baseline: control
SMILES	remaining activity [%]
c1cc(-c2cnn3cc(-c4ccc(OCCN5CCCCC5)cc4)cnc23)ccn1	93
N#C/C(=C(/N)SC1C=CC=CC1)c1cccc(C(O)c2ccncc2)c1 (stereo not drawn)	97.2
c1ccc(-c2n[nH]c3c2oc2ccccc23)cc1	99.7
CC(C)(C)c1nc2c3cc[nH]c(=O)c3c3cc(F)ccc3c2[nH]1	104
Cc1ccc(S(=O)(=O)/C=C/C#N)cc1	95.1
O=c1cc(N2CCOCC2)oc2c(-c3ccccc3)cccc12	91.9
c1ccc2c(-c3ccncc3)c[nH]c2c1	98.7
Clc1ccc(Nc2nnc(Cc3ccncc3)c3ccccc23)cc1	97.5
O=C(c1cc2cc(O)ccc2[nH]1)c1cc2cc(O)ccc2[nH]1	99.7
O=C1NC(=O)c2c1c1c3ccccc3[nH]c1n1cncc21	107
Nc1nc(Nc2ccc(S(N)(=O)=O)cc2)nn1C(=S)Nc1c(F)cccc1F	96.5
O=Nc1c(-c2c(O)[nH]c3cc(Br)ccc23)[nH]c2ccccc12	99.4
CCCCc1c(-c2ccc(OC)cc2)[nH]c2nccnc12	97.7
O=C1Nc2ccccc2/C1=C\c1c(Cl)[nH]c2ccccc12	97.4
O=C(O)/C=C/c1cc(Br)c(Br)c(Br)c1Br	96.4
COc1cccc(-c2cc(=O)c3ccccc3o2)c1N	108
N#CC(c1ccnc(NCCc2cccnc2)n1)c1nc2ccccc2s1 (stereo not drawn)	65
COc1ccc(COc2ccc(Cc3cnc(N)nc3N)cc2OC)cc1	101
CC(C)n1cnc2c(Nc3cccc(Cl)c3)nc(NCCO)nc21	91.2

Set 3
Target: ABI1, truncated, D143A, DHFR fusion (Arabidopsis thaliana)
Method: DHFR PCA, deep sequencing
Sample: yeast
Setting: methotrexate growth selection, single substitutions
With: (+)-ABA 0.0091 µM
Baseline: wild-type fitted maximum
Direction: higher = stronger binding
Parent: PYL1, truncated, DHFR fusion (Arabidopsis thaliana); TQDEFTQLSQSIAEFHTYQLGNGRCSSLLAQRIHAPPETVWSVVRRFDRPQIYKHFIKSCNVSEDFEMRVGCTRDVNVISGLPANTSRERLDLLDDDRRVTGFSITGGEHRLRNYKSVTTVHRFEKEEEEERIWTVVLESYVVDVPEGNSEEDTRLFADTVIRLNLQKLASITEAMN; partner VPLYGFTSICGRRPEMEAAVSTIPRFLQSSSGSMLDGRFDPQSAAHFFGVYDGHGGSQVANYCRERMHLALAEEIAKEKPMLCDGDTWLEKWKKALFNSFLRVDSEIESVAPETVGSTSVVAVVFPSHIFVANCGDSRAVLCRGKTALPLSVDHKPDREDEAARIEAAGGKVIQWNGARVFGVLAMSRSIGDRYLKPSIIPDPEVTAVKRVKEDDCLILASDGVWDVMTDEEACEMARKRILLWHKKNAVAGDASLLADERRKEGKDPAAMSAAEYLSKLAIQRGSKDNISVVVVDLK
Change	relative binding score [%]
L28T	3.13
T120K	-2.69
L8S	3.17
E128N	26.9
I133N	40.4
E127Q	50.9
L20R	25.8
Q10L	5.06

Set 4
SMILES: O=C(O)[C@H]1[C@H](Cn2nnc3ccccc3c2=O)CC[C@@H]1C(=O)c1ccc(OCCC2CCOCC2)cc1
Method: competition with immobilised ligand
Tested at: 1 µM
target	assay	remaining binding
ACVRL1 (Homo sapiens, UniProt P37023)	binding	85%
FER (Homo sapiens, UniProt P16591)	cell-free assay	90%
BUB1 (Homo sapiens, UniProt O43683)	cell-free assay	85%
MAPKAPK2 (Homo sapiens, UniProt P49137)	cell-free assay	89%
MAP3K6 (Homo sapiens, UniProt O95382)	cell-free assay	91%

Mixed results
Target: SMN1, full length (human, UniProt Q16637, residues 1-294)
Sequence of UniProt Q16637 (whole entry, looked up): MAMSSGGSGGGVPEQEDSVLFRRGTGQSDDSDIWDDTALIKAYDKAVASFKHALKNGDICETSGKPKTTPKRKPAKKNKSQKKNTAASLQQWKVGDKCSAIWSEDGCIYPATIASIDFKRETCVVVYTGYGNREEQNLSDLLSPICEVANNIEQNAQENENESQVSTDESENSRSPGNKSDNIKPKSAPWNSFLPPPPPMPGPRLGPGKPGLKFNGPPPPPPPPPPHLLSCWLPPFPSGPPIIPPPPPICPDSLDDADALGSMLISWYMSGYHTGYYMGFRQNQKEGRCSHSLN
Method: nitrocellulose filter binding
Form: RNA
Sample: in vitro
Tested at: 100 nM
Setting: whole RNA, constant flanks, single concentration, ends assumed
Baseline: round 9 selected pool
Direction: higher = stronger binding
Oligonucleotide	relative RNA binding
GGGCUCACCACGCACUUGCCUUGCUUGCCAAACUUGGGGGCCUCACCACGGCAAGCU	3.9 % of pool
GGGCUCACCACGCACGUGGUAAUUGUCUAUGGUGAUUGGGCCUCACCACGGCAAGCU	15 % of pool

For quick reference, copied from above (set 1):
Oligonucleotide	6-mer enrichment (R)
ACGGCC	0.841
AGUCAU	0.588
GUACCG	0.907
CCACAC	0.645
